Experimental data from different studies.
Every numbered part comes from another study and shows a few of its results, in no order.

Block 1 — technique: protein binding microarray; form: double-stranded DNA, one strand shown; matrix: in vitro; tested at: not given; relative to: not given; direction: higher = stronger binding; measurement: E-score
Target: Histone acetyltransferase KAT6A, both winged helices, GST fusion (KAT6A, Homo sapiens, UniProt Q92794, residues 1-181)
Notes: 8-mer, flanks averaged, mean of 2 arrays, mostly near background
Target sequence (chain): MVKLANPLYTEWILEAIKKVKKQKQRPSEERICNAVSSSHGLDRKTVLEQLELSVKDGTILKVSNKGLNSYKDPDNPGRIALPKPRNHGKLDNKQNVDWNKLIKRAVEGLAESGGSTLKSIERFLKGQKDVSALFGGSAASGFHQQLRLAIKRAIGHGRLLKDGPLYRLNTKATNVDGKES
ACCTAACT: -0.0862
GACCGGGA: 0.212
AGGGGTTA: -0.242

Block 2 — technique: universal PBM; form: double-stranded DNA, one strand shown; matrix: in vitro; tested at: not given; direction: higher = stronger binding; measurement: E-score
Target: Sal-like protein 4, full length isoform B (SALL4, Homo sapiens, UniProt Q9UJQ4-2, residues 1-616)
Notes: 8-mer, flanks averaged, mean of replicates
AATCATGA: 0.221
AGAGATGC: -0.111
GCATCGCA: -0.186
GCATTGTA: 0.123

Other studies, line by line
GGTTGGTGTGGTTGG (2'F-ANA at 2 4 6 10 12 15)  mean fluorescence intensity (Prothrombin, mature alpha-thrombin (F2, Homo sapiens, UniProt P00734); aptamer microarray, sandwich; DNA with 2'F-ANA, in vitro; 200 nM, whole 15-mer aptamer, many near background, added: Cy3 exosite-II aptamer, 400 nM; higher = stronger binding): 111 a.u.
PhoQ, residues 284 288 289 292 302 303 ASVMEA  fold induction (PhoP, residues 12 14 15 18 19 NNFVT (Escherichia coli, UniProt P23836); Sort-seq, refers to: YFP reporter; E. coli; PhoQ-PhoP variant library, added: 10 µM Mg2+; relative to: high Mg2+ state, higher = stronger signaling): 8.34

For quick reference, copied from above (block 1):
ACCTAACT: -0.0862
